Results gathered from unrelated publications.
Each numbered part is a random draw from the data of one study; scales do not carry over between parts. Positions count from the first letter of the parent shown.

Set 1 — method: RNAcompete; form: RNA; matrix: in vitro; tested at: 20 nM; setting: 7-mer, probes averaged, single round; reference: mean of 7-mers; direction: higher = stronger binding
Target: PABPC1L2, full length, GST fusion (mouse, UniProt A0ABA7IW68)
Target sequence (chain): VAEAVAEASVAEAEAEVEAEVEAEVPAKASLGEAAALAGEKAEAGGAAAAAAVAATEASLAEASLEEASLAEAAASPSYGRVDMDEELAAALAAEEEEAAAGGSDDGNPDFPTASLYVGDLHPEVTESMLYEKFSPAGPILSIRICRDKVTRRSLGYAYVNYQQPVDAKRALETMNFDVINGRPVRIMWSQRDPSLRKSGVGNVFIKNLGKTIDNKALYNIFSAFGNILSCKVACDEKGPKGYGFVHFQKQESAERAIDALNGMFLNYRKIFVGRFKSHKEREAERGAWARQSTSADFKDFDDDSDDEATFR
Oligonucleotide	7-mer Z-score
UCUACGU	-0.271
GUUUGAU	-0.378
CCAUUUC	-0.452
UGCUAUC	-0.333
GGUUGAC	0.166
AUGUCAC	-0.133
ACCCAAG	-0.0935
CAGACAG	0.0678
ACGUACG	-0.0518
CACGUGA	-0.0917
GGGCGUG	0.229
GGACGUU	-0.126
GCCCGAU	-0.159
CAAAUAG	0.327
AUUGUUC	-0.402
UAGUGCC	-0.249
GUGGGGA	0.412
AGCCCCA	-0.228
AGACCGC	-0.262
GACGAUG	-0.146
UGUCCCC	-0.371
UUGCCUG	-0.318
AAUGCAA	0.283
CUAAACC	-0.0337

Set 2 — method: RNA Bind-n-Seq; form: RNA; matrix: in vitro; tested at: 200 nM; setting: whole 134-nt RNA, ends assumed; added: 150 mM KCl; reference: input library; direction: higher = stronger binding
Target: Fragile X messenger ribonucleoprotein 1, C-terminal low-complexity region (Fmr1, Mus musculus, UniProt P35922)
All sequences stand within: GGGAGUUCUACAGUCCGACGAUC … UGGAAUUCUCGGGUGUCAAGG
Oligonucleotide	log2 enrichment
UGGGAGGUGGAUUUUGUUUAUUUUUUUAGCUCAUUUCCAGGGGUGGGAAUUUUUUUUUAAAAUGUGUCAUGAAUAAAGUUGUUUUUGAAA	0.1
CACAGACAACACGCACCCACACAGACACAGAGGGAAGGGGUUGGGAUGGGGACACGGUGCACAGCAGGGCGGGGUAGGACCCCAGCCCCU	1.3
AAGUCCUGUGCUACACAUCGUAUGUACCGAAUCGGGGUGGGGUUUGGGGUUUGGGGAAAGUAUUAUGUUACGCCGUUCGGAUCUGCACUU	1.7
CCUGUGCUACACAUCGUAUGUACCGAAUCGGGGUUUUUUUGGUUUUUUUGGUUUUUUUGGAAAGUAUUAUGUUACGCCGUUCGGAUCUGC	-0.478
CACAGACAACACGCACCCACACAGACACAGAGGGAAGGGGUUGGGAUGGGGACAGGGUGCACAGCAGGGCGGGAAAGGACCCCAGCCCCU	1.31
AGUCCUGUGCUACACAUCGUAUGUACCGAAUCGGGUUUUGGGGUUUUGGGGUUUUGGAAAGUAUUAUGUUACGCCGUUCGGAUCUGCACU	0.0886
UCCUCAAGUCCUGUGCUACACAUCGUAUGUACCGAAUCGGGCGGGGCGGCGGAAAGUAUUAUGUUACGCCGUUCGGAUCUGCACUUCCAG	0.0691
UGGCCCUGGUGGCAUGCGGUGAGGAAGAGGUGGCCUCAUGGAUCGUGGUGGUCCCGGUGGAAUGUUCAGAGGUGGCCGUGGUGGAGACAG	0.183
AGUCCUGUGCUACACAUCGUAUGUACCGAAUCGGGGAAAAAGGGGAAAGGGGAGGGGAAAGUAUUAUGUUACGCCGUUCGGAUCUGCACU	0.331

Set 3 — target: CCNB3, cyclin fold, Cln2 fusion (human); method: yeast growth competition, sequencing; matrix: yeast; setting: weak parent motif; reference: not given; direction: higher = stronger binding
Starting sequence: ORC1 docking peptide (human); PRARKRLELGNLG; partner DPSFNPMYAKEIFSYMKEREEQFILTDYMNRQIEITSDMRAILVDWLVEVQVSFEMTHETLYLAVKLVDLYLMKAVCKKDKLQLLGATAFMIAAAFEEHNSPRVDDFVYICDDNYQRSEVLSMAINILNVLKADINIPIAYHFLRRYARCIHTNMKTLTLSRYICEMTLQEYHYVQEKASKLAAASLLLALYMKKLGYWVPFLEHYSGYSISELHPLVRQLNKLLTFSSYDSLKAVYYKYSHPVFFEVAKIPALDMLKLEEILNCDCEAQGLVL
Change	normalised enrichment score
R4A	0.0747
G13V	-0.0199
A3D	0.0391
L7T	-0.211
N11Q	-0.38
N11I	-0.241
L12T	0.282
R6A	-0.00787
K5N	0.232
G13Q	-0.525
L7A	0.175
E8H	-0.352
R6D	0.0819
L9G	0.0538
R6C	0.275
K5H	0.132
L7I	0.165
L9Y	0.246
R6M	0.244
R6F	0.56
R6V	0.0702
L12P	0.416
E8T	-0.356
G13S	0.419
K5F	0.153

Set 4 — method: RNA Bind-n-Seq; form: RNA; matrix: in vitro; tested at: 365 nM; reference: no-protein control; direction: higher = stronger binding
Target: RNA binding protein fox-1 homolog 2, RRM domain, GST-SBP tag (RBFOX2, Homo sapiens, UniProt O43251-10, residues 100-194)
Setting: natural RNA segment, single round, ends assumed
All sequences stand within: GGGAGUUCUACAGUCCGACGAUC … UGGAAUUCUCGGGUGCCAA
Target sequence (chain): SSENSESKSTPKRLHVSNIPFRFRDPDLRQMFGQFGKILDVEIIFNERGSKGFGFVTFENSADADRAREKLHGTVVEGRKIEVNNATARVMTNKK
Oligonucleotide	RBNS enrichment (R)
CAGAAAUAUUGACAAAUGCUGGCCAGCUUUAUCUUCCUAUAUCCUUCAUUAAAAGUAUAUGCAUAUAUUGUUGGUUUUUUUUCCUAAAUUGUGGCUUUGUUAAACAAUGU	0.339
CUGCCUUCUGCGCCUCAGUCCCCCGUGCAUCCCUGGGCCUGGGUAUCACAUGCUCUCCAGGAAAGGGACGGAAUCAAUCCUGUGACCGAUGGGCUCGCAAGGAUGGGUGC	0.521
UGAACAGACUAUAACUAGGAAAGGAGGAAAGGUAUCAGGGAUUUUUAAGUCCGUUUAGAGAGCAAACCAUAUUGUGCCUCUUCAUCUUGACCCAGGCUCUUAUAGAUAGG	0.449
UGUUUCUAAAACACAGAACUUACAAGAGCCACAGGAGCCAAUUAUAGCACCUGACAGAAUACUUCUCCUCUUCCUCACCUUCGGGUGCCUCUAGACACUUGACUUACGAU	0.272
UGUCCCCACUCUCCUGGCCUGACAAGAUGAGCUCUCCUGGGACCUUGCUCUAGGGCACUCUGCCUCUACCCUAGGACACUGGAAUGCCCUGGGAGCCCCCUCCCUGCAAC	0.755
AUGGCUUUCCCAGAAGACACUCCUGGCCAUCUGUGGAUUUGUCUGUGCACCUAUUGGCUCUUCUAGCUGACUCUUCUGGUUGGGCUUAGAGUCUGCCUGUUUCUGCUAGC	0.479
UAGAUUUGUACAAAUGCUUUUUUUGUCCGUCCUCGUGGGGUUUUUUUUCUCCCCCUUUUCUUUGUUGUUUUCGUUGUUGUUGAUAACAAACUGGAAACCUGUCUCUCUCU	0.591
UGGAGAUUCUUCAGACUCGGGGGAGACUGAAUUGGAUGCCUCUCUCAUCCCAGCACACUUCUAAUAGACCCCUUCAGUCACGGAGGGAGUGCCCCAAGGUUGGACAGGCA	0.284

For quick reference, copied from above (set 2):
Oligonucleotide	log2 enrichment
UGGGAGGUGGAUUUUGUUUAUUUUUUUAGCUCAUUUCCAGGGGUGGGAAUUUUUUUUUAAAAUGUGUCAUGAAUAAAGUUGUUUUUGAAA	0.1
CACAGACAACACGCACCCACACAGACACAGAGGGAAGGGGUUGGGAUGGGGACACGGUGCACAGCAGGGCGGGGUAGGACCCCAGCCCCU	1.3
AAGUCCUGUGCUACACAUCGUAUGUACCGAAUCGGGGUGGGGUUUGGGGUUUGGGGAAAGUAUUAUGUUACGCCGUUCGGAUCUGCACUU	1.7
CCUGUGCUACACAUCGUAUGUACCGAAUCGGGGUUUUUUUGGUUUUUUUGGUUUUUUUGGAAAGUAUUAUGUUACGCCGUUCGGAUCUGC	-0.478
CACAGACAACACGCACCCACACAGACACAGAGGGAAGGGGUUGGGAUGGGGACAGGGUGCACAGCAGGGCGGGAAAGGACCCCAGCCCCU	1.31
AGUCCUGUGCUACACAUCGUAUGUACCGAAUCGGGUUUUGGGGUUUUGGGGUUUUGGAAAGUAUUAUGUUACGCCGUUCGGAUCUGCACU	0.0886
UCCUCAAGUCCUGUGCUACACAUCGUAUGUACCGAAUCGGGCGGGGCGGCGGAAAGUAUUAUGUUACGCCGUUCGGAUCUGCACUUCCAG	0.0691
